Measurements from different studies.
Every numbered part comes from another study and shows a few of its results, in no order.

Study 1 — method: EMSA with sequencing; form: double-stranded DNA, one strand shown; sample: in vitro; tested at: 10 and 20 nM; reference: negative control set to 0; direction: higher = stronger binding
Target: Hepatocyte nuclear factor 3-alpha (Foxa1, Mus musculus, UniProt P35582, residues 1-468, full length assumed)
Setting: whole designed probe, mean of two concentrations, ends assumed
Residues (chain): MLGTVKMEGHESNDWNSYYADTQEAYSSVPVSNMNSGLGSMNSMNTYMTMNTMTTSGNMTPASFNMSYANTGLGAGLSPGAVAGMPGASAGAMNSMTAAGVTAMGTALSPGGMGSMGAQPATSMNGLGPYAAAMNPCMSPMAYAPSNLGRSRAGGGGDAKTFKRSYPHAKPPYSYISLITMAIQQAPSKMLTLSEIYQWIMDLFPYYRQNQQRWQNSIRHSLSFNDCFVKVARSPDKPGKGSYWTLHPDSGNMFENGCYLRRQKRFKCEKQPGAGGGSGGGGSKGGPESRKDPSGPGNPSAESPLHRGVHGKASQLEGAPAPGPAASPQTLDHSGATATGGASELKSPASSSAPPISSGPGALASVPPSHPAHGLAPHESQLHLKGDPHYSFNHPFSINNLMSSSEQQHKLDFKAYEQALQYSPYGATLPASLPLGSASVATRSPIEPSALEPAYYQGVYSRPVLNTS
Strand	normalised bound fraction [ratio]
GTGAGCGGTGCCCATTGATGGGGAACAGTGCCAAGAACTGCCATTTACACTCGGAAGCGCTCCAGGGAAGGTTAATACTACTGTGATTAATACTGTTTACAGAGCCAATAAATTTTAGGTAAACACCCAAAGGAGAGTTAAAGAGTTGTCTCATCGGTCCCATAAAGGCTGGTAAAAGGGGCGGGGAATGGTTCCACGCCAACCCTGTCCGTCACCGCATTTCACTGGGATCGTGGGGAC	0.276
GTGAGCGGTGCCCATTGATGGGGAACGTTTGGCATTTATTTTTACTTTGTTGTAATAGTAATCTCAAGGGATCCCCTTTATTTAGCATAAAATTTCCTTGCCAGAAAGTAATTTTTTGAAGATTATATAAGCAGCTATAAAAACAATTTCCTGAGAGATTTCTCCACAAAAATATTTACCTGCTTGAGCCGATGGATTGAGATGATTTGGAAACCAAACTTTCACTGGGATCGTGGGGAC	-0.0153
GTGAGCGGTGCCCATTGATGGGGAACTCAGAACACCTCTCTGACAAATCAATAGAAACAGAAACTCTTTGTATTGATGGATTTTCCAAGGTTCATATTATCAGTAAATTCAAAACAAAGTAAACAGAAAAAAGAACTAGGTCAACATTAGCGGTCAAGTAAGGTTACATTTTATAAGCAATGCAATTATATTAATTTGTTTTTAAGCAAATAATAAACTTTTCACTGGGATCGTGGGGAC	0.499
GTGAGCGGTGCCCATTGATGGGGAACAACAGATTAGCTGATCTCTAATGGCCCTAGGAGAAGATCTTGTATTGCTTCAAAATCTTTTCTGATTCTCATCACTCAACCTTCTTGGCTATGTAATCTAAGGAAGCTTTCCTTTTGTTTTCCAGACGTTTGGAAAACAAAATTTTCCAGAGCTGTGCATCTGCCAGGAAATGTTTCTTTTAACCTGATATCATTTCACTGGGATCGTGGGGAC	-0.0465
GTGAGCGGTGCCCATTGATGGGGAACTACTGACTTTATAAGATTTATTTAGTTCCTTTTTTTGACAAAGGTAAAACTTCTTGGACGATTATTAAGGTGCCAGATAAATAGAAGGGGTTATATTTACACAATTGGCAATGTCTAGCATATAGTAGATCCCCAGTAGGAGGTTGCTTTTGTAACTGTTATTATAATGATCACGAACGCCATCATTCTCACCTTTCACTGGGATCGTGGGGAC	0.328
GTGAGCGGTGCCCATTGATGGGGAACTACTGACTTTATAAGATTTATTTAGTTCCTTTTTTTGACAAAGGTAAAACTTCTTGGACGATTATTAAGGTGCCAGATAAATAGAAGGGGTTAAAATTACACAATTGGCAATGTCTAGCATATAGTAGATCCCCAGTAGGAGGTTGCTTTTGTAACTGTTATTATAATGATCACGAACGCCATCATTCTCACCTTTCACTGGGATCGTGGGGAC	0.0452
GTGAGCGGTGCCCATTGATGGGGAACGAGTGAGATTTTAATCTTTGACACTCTACAGCAAGTTGAAGGGGTAGTATATGAGTGAGGCTGACATGAGAAGTTTCTCATGATAAGTTTCTCATGTTTACTTAGTTTCCCAGCTATAAAAACCAAAGAAAAGAAGGCCATATTAAGTATTAGTATAGATTTCCATAAATATAATAAGGATCTATTATTATTATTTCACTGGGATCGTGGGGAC	0.411
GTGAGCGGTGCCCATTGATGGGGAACGATTTTTCTAGGAAATTACAGGTTTTTTTTTAAATCAAGACCATTGGTATATAGCTGTGCAGTATTTTCTGTATTAATTAAAAATTTCCCTCATATTTACTTTCATATCCCTTTATCCATTTTTAAATTTATGTAACCCAAATGTTACAGTCTCATGAGGTCAGAGTCTCATTAAGAAAAAATCCTGCATTTTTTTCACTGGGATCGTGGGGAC	0.12

Study 2 — target: Cln2 (Saccharomyces cerevisiae); effect on: peptide binding; method: competitive growth sequencing; form: peptide; organism: Saccharomyces cerevisiae; strain: unfused Cln2 strain; setting: peptide tiling library; direction: direction not given
Molecule	enrichment score
NESHLDKEHDAVEVAD	0.47
DKYDEGLYRFNSLNDL	0.402
KRCATPVIIDEILPSK	0.306
GTPKRCLDLSNLSSGE	-0.0495
EPRNLLSLFEDTLDPT	0.354
ASVLSKPIFCFVKD	0.361
NSMKELNFSHLPSNSV	0.301
VKRLNFRSEEME	-0.409
SNFFDVIKQLFSDEKN	-0.52
VLPGGVPSPGASLTSM	-0.35
ATNSSHTDAHEILVSD	0.309
AEHPKPSACRNLFGPV	-0.329
PHKTFRKLRLFDTPHT	-1.41

Study 3 — method: RNA Bind-n-Seq; form: RNA; sample: in vitro; tested at: 200 nM; setting: whole 134-nt RNA, ends assumed; with: 150 mM KCl; reference: input library; direction: higher = stronger binding
Target: Fragile X messenger ribonucleoprotein 1, C-terminal low-complexity region (Fmr1, Mus musculus, UniProt P35922)
Strand	log2 enrichment
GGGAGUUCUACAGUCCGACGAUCUCAUGUGGAUGAAGCAGAAAAAGAAGCUCAGAAGAAGCCAGCUGAAUCUCAAAAAAUAGAGCGUGAAGAUGCCCUGGCUUUUAAUUCAGCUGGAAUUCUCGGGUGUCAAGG	-0.817
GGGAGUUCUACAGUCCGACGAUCUGGAGCUGAAGAGCCAAGAGGCUCCGAGUCUGCAGCAGCAGCCAGACCAGUACCUGGAGCCCCAGUCCCACAAGGAGCUUGGAUGUGCGGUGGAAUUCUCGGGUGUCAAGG	-0.501
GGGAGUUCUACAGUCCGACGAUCUCCUGUGCUACACAUCGUAUGUACCGAAUCGGGGAAAAAGGGGUUUUUUUGGGGAGGGGAAAGUAUUAUGUUACGCCGUUCGGAUCUGCAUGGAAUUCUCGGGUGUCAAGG	0.759
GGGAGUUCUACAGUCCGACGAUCUCAAGUCCUGUGCUACACAUCGUAUGUACCGAAUCGGGAAAGGAAAGGGAAAGGGAAAGUAUUAUGUUACGCCGUUCGGAUCUGCACUUCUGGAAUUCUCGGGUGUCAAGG	-0.35
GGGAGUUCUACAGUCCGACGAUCUAACAUUAGAGGAGGAUCUGAUGGAUAUGGCAGUGGACGUGGAUUUGGGGAUGGCUAUAAUGGGUAUGGAGGAGGACCUGGAGGUGGCAAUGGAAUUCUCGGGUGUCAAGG	0.41
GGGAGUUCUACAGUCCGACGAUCCUGUGCUACACAUCGUAUGUACCGAAUCGGGUUUUUUUGGGGUUUUUUUGGUUUUUUUGGGGAAAGUAUUAUGUUACGCCGUUCGGAUCUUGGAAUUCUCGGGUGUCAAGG	-0.28
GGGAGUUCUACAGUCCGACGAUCCACAGACAACAAGCACCCACACAGACACAGAGGGAAGGGGUUGGGAUGGGGACAGGGUGCACAGCAGGGCGGGGUAGGACCCCAGCCCCUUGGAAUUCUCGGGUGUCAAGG	1.24
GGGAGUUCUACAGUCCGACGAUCGUCCUGUGCUACACAUCGUAUGUACCGAAUCAAAUUUAAAUUUUUUUAAAUUUUUAAAAAAGUAUUAUGUUACGCCGUUCGGAUCUGCACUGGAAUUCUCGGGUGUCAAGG	-1.28
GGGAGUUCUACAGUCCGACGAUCAGUCCUGUGCUACACAUCGUAUGUACCGAAUCGGGGCCCCGGCCCCGGGGCCCCGGGGAAAGUAUUAUGUUACGCCGUUCGGAUCUGCACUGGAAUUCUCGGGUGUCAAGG	-1.51
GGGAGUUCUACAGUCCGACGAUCCACAGACAACACGCACCCACACAGACACAGAGGGAAGGGGUUGGGAUGGGGACAGGGUGCACAGCAGGGCGGGGUAGGACCUCAGCCCCUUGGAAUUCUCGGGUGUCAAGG	1.17

Study 4 — method: RNA Bind-n-Seq; form: RNA; sample: in vitro; tested at: 365 nM; reference: no-protein control; direction: higher = stronger binding
Target: RNA binding protein fox-1 homolog 2, RRM domain, GST-SBP tag (RBFOX2, Homo sapiens, UniProt O43251-10, residues 100-194)
Setting: natural RNA segment, single round, ends assumed
Construct (chain): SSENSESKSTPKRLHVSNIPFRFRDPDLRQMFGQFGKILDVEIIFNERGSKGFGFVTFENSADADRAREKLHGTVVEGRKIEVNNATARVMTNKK
Strand	RBNS enrichment (R)
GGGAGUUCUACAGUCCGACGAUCUACUGCUUGUGUCUCUUUGGUGCAAUAAUUAAAAUGGAAGGAGGAGCUGAACUGGGAACCCUACAGCCUAGUGAUUCUUCUACUUGCUCGCUAUAGCUUUCUGUUGGCAAUGGAAUUCUCGGGUGCCAA	0.33
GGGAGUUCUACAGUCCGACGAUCCCUCACUGGAGACUACAAGUGGUGGGUCAGGUGGUCCUAGGACCCAGGGGAGGUUUAGGGGUCCUAUCUCCUGGGGGAAGGGGAGAUCUAAGAUGUCCCAGGUCCUGGGAUGGAAUUCUCGGGUGCCAA	0.45
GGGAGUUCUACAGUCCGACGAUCAGGAUACUCUUGUACCUGUGGUUCAUGCUUGAAAUGUUAAAGAUUCCUUAAUCCAACUUAUACCGGGUUGGAGGCACUUGUACUAUUUAUUUCCUGGGAAAUUUUGGUCAUGGAAUUCUCGGGUGCCAA	0.784
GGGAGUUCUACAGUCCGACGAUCGAUUUUUUAAUAUGUGAACACUGCAAAAAUGUGUUUAAAUUAUCUUUUUUAAAACCUAUUCAGGAUUAUUAGCCUGGACUUGGACACAGAGUUUGUAAAUAAAGGUGUCUUGGAAUUCUCGGGUGCCAA	1.63
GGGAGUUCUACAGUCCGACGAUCCCUCUAGUCUACCACCAGUGUUAACGCACUCUAAAGUUGUAACCAAAAUAAAUGUCUUACAUUACAAGACGUCUGUUUUGUGUUUCCUUUUGUGUGUUUGGGCUUUUUAUUGGAAUUCUCGGGUGCCAA	0.307
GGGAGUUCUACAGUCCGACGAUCUCCUUGAUUUCUCAGUAGGUGCUAGAAUCCAGUUCACACCCUUCACUGUGCGUGCAGACACACUGACACACUCCGCCACGAGUGCUCCAGAGCCCACGAGGCUUGCAGAUUGGAAUUCUCGGGUGCCAA	0.39
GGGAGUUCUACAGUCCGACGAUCGCUCCGGAGACAGGCACAGCUCUGGCAGAAAGCUCAACGCUAAGGGAUCUCCUUCCCAGUUUCAGCACUUCAGUCAGGGCUGACCAACUUGAAAAGAGCCUCCGACUGUCUGGAAUUCUCGGGUGCCAA	0.232
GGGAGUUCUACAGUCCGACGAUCGGACCUCCAGGCGGCUCAGUGCUGCCUGCGGCCCAGCUAAGGGGCCUGGCCACUGGGUGCCACCCAGCCUGUGUGCCCUCCCUGGGGCUGAGGAGGCAGGCGGCUGCUAGUGGAAUUCUCGGGUGCCAA	0.27
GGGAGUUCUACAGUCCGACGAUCAGCAUAUGUAGGAUAUUCAAUUUGCAGAUACUUUUGUUGGUUAUGUUGGUUUAUAAUAGACAAGUUUUAUGGUCAUAUGCAAUUAUUCCAUUAUCUUUUUGGACACAGUGUGGAAUUCUCGGGUGCCAA	0.554
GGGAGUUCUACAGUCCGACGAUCCUCUCCCCUGCCCCUCUUCCCUGACCCCAGCUGGCUAGCACUGCAGAGUUUGGCUGCUGGCAGUGUGGCUGGAGGGGAGGGGAGACCACAUCUAAGGUGGGGGCCAUGGCUGGAAUUCUCGGGUGCCAA	0.237
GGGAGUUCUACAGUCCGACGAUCCUCUUUUGGAAAACAAAAAUCAGAAGGCUGCAUUCUAGAGGGCAGAGAAAUUCCCCCGAAGACUGAGCUGGUUGCCUGCAUCCUCUAUCUUCUUUGACCCUUAUGACUGAUGGAAUUCUCGGGUGCCAA	0.902
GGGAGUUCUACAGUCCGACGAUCCUGUUGCGGUUUCAUUCUCUGUCAUCAGGGCUAUUUUCUACAGACCUUGAGCCUCAAAACCUGUUCUACCAUUGAAGGAGAGGAAGAUUGAAGUUGGCUUACAUUUCUACUGGAAUUCUCGGGUGCCAA	0.312

Repeated from above (study 2):
Molecule	enrichment score
VKRLNFRSEEME	-0.409
ATNSSHTDAHEILVSD	0.309
